Measurements gathered from unrelated publications.
Each line is one published result; not all experiments were run side by side. ± marks the error that the study gave.
POLB: DNA polymerase beta (POLB, Homo sapiens, UniProt P06746)
UniProt P28482, sequence (whole entry, looked up): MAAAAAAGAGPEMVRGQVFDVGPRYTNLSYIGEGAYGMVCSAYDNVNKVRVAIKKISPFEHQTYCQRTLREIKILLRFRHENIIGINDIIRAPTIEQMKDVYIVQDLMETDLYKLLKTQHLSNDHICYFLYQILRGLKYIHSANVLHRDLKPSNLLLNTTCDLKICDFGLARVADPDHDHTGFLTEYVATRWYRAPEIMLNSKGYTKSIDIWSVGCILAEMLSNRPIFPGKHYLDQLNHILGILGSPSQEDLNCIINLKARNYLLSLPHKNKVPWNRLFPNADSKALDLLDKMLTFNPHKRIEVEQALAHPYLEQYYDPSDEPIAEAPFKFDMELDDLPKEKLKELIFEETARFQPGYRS
UniProt P29994, sequence (whole entry, unmodified, looked up): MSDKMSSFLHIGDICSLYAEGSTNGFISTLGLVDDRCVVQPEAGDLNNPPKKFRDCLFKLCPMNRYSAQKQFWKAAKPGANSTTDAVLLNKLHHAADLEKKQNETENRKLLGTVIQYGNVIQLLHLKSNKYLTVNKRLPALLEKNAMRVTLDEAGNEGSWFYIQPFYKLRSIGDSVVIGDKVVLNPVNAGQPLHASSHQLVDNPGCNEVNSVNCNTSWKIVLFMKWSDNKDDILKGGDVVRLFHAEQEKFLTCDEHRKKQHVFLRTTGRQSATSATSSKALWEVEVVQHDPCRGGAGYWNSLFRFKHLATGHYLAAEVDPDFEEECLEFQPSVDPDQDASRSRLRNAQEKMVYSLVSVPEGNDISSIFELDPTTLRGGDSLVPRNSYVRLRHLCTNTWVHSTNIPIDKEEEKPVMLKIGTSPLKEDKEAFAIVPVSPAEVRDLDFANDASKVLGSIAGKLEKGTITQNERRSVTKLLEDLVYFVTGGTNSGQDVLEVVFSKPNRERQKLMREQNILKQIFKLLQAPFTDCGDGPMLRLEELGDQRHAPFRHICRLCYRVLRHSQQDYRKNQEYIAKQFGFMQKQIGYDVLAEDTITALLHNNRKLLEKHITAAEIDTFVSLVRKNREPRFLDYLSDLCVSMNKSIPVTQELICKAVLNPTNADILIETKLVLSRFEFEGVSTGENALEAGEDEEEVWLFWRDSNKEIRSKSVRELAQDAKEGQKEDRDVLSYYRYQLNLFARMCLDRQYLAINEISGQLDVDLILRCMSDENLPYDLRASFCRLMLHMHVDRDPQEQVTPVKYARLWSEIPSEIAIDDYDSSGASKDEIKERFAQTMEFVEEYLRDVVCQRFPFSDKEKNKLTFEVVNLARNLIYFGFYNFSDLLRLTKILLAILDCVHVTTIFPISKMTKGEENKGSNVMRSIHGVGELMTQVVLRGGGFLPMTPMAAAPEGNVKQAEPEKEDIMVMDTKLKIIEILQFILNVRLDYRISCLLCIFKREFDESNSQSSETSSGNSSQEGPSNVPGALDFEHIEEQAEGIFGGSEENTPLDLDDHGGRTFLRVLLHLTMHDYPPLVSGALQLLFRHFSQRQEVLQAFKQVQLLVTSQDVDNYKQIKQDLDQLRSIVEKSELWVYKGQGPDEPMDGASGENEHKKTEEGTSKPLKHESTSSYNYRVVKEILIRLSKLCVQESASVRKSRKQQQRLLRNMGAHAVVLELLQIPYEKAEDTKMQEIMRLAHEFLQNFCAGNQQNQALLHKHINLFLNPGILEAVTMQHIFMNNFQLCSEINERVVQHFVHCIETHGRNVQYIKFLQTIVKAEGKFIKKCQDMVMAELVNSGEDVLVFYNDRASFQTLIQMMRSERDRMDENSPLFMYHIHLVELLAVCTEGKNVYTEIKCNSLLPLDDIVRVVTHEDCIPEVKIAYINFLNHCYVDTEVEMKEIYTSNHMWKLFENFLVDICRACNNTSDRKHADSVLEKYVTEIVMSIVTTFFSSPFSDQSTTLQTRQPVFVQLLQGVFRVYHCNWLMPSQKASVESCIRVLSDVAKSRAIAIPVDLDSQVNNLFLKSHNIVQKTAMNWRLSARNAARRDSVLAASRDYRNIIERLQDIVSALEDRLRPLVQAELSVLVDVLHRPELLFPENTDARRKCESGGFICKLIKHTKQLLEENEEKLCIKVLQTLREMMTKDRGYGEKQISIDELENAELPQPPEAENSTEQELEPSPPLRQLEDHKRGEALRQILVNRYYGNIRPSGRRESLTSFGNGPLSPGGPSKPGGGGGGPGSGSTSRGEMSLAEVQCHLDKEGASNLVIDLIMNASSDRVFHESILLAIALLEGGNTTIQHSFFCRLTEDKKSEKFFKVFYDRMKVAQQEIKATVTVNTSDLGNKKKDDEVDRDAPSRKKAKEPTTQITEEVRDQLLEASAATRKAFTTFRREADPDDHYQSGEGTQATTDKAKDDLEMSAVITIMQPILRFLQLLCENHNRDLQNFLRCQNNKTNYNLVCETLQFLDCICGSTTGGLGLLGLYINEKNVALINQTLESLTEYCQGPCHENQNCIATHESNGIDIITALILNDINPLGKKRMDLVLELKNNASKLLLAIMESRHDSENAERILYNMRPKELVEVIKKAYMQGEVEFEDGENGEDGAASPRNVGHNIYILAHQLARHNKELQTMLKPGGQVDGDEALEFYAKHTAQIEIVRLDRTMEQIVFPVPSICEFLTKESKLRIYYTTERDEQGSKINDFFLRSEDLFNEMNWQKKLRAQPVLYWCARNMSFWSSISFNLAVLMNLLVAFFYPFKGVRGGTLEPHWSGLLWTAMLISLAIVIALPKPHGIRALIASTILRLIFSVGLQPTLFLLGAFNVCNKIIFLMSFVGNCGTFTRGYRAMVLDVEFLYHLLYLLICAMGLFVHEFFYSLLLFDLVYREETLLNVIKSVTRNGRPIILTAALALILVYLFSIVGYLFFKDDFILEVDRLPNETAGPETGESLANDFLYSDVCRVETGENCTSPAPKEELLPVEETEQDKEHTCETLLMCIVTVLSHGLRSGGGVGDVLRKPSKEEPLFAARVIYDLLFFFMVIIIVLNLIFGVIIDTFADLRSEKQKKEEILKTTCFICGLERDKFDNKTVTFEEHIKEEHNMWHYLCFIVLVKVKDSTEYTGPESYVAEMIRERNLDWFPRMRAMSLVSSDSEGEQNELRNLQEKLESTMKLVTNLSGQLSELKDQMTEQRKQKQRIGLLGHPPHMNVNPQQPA
UniProt Q06124, sequence (whole entry, looked up): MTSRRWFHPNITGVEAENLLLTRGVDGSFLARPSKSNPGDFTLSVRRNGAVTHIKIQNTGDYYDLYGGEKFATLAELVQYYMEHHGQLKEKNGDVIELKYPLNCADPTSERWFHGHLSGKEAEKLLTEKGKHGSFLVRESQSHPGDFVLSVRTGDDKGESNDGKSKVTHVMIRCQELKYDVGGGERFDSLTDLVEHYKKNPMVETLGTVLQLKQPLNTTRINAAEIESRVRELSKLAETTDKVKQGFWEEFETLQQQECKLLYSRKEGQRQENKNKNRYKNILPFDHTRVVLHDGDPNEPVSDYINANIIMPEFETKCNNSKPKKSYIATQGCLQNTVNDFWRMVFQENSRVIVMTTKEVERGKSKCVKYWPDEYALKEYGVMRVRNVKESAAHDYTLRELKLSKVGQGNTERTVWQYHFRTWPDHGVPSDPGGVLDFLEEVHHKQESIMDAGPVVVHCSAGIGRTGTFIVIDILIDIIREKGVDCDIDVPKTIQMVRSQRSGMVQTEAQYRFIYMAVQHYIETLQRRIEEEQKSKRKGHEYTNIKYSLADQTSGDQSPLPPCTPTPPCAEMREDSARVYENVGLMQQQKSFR
UniProt P00558, sequence (whole entry, looked up): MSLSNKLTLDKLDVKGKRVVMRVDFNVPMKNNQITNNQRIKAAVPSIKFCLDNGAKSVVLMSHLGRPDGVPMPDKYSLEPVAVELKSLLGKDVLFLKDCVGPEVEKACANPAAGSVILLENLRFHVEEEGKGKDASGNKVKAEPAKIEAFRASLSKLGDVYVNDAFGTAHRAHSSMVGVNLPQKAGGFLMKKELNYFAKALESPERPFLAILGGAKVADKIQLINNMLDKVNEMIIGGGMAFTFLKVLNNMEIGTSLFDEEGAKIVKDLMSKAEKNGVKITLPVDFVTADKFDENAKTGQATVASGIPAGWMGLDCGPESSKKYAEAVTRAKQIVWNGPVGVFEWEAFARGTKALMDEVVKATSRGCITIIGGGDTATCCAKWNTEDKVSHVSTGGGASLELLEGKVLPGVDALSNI
UniProt Q8NEB9, sequence (whole entry, looked up): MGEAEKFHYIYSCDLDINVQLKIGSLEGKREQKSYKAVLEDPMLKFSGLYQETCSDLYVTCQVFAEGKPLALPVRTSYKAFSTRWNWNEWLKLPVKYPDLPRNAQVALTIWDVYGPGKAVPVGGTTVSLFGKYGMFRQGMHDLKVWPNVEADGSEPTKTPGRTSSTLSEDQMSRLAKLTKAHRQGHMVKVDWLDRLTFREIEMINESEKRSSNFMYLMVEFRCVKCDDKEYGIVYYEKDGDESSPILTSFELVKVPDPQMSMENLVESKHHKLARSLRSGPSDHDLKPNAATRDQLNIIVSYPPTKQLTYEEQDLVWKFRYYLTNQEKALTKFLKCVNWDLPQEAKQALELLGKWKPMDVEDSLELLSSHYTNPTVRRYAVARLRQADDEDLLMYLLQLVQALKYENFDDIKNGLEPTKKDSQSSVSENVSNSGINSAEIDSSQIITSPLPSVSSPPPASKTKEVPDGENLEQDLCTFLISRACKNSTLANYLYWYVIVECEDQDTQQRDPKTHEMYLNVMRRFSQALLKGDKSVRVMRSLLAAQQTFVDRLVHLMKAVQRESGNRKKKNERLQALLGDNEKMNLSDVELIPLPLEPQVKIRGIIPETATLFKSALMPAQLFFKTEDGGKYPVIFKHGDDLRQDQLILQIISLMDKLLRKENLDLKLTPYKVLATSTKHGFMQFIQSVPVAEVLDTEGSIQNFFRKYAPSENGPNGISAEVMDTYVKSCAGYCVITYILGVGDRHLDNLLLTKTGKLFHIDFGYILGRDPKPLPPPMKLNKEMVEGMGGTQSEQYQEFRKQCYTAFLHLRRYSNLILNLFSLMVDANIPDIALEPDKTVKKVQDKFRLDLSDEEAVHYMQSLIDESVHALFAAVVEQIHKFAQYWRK

`C[n+]1cn(C2OC(COP(=O)(O)OP(=O)([O-])C(F)(F)P(=O)(O)OP(=O)(O)OCC3OC(n4cnc5c(=O)[nH]c(N)nc54)C(O)C3O)C(O)C2O)c2nc(N)nc(O)c21` (stereo not drawn) gave a Kd of 0.0174 µM (Eukaryotic translation initiation factor 4E, residues 28-217 (Eif4e, Mus musculus, UniProt P63073); binding, fluorescence quenching titration; pH 7.2, 20 °C).
With `O=P(O)(O)O[C@@H]1[C@@H](O)[C@H](O)[C@H](O)[C@H](O)[C@H]1OP(=O)(O)O` the Kd was 3.43 µM (Inositol 1,4,5-trisphosphate-gated calcium channel ITPR1, N-terminal region (Itpr1, Rattus norvegicus, UniProt P29994, del318-332); [3H]IP3 competition binding; N-terminal fragment; cytosol-like medium).
For `O=C(NCCOc1cnc(-c2ccc(N3CCN(C(=O)CN4CCC(C(=O)Nc5ccc6[nH]nc(-c7ccncc7)c6c5)C4)CC3)cc2)nc1)OC1CCC=CCCC1` (stereo not drawn), the Kd was 0.00017 µM (Mitogen-activated protein kinase 1 (MAPK1, Homo sapiens, UniProt P28482); binding, SPR).
`CC[C@H](C)[C@@H]1NC(=O)[C@H](C)NC(=O)[C@H](C)NC(=O)[C@H]([C@@H](C)O)NC(=O)[C@H](C)NC(=O)[C@@H]2CSSC[C@@H]3NC(=O)[C@H](C(C)C)NC(=O)[C@H](CCCCN)NC(=O)[C@H](CO)NC(=O)[C@H](CCCCN)NC(=O)[C@@H]4CSSC[C@H](NC(=O)[C@H](CO)NC(=O)[C@H](CCC(=O)O)NC(=O)CNC(=O)[C@H](CSSC[C@H](NC(=O)CNC1=O)C(=O)N[C@@H](CO)C(=O)N4)NC(=O)[C@@H]1CCCN1C(=O)[C@H](Cc1ccccc1)NC(=O)CNC(=O)[C@H](CC(N)=O)NC(=O)[C@H](CCCCN)NC(=O)[C@H](Cc1ccc(O)cc1)NC3=O)C(=O)N[C@@H](C(C)C)C(=O)N[C@@H](Cc1ccc(O)cc1)C(=O)N[C@@H](CC(C)C)C(=O)N1CCC[C@H]1C(=O)N2` has a Kd of 19.4 ± 0.8 µM (POPC/POPE lipid membrane; membrane binding, surface plasmon resonance; POPC/POPE 80:20 vesicles; pH 7.4).
With `CCOC(=O)c1nc2cc(Cl)c(Cl)cc2nc1N1CCN(C(=O)Nc2ccc(N3CCNCC3)cc2)CC1` the Kd was 0.0991 µM (Phosphoglycerate kinase 1 (PGK1, Homo sapiens, UniProt P00558); binding, MST).
`CC[C@H](C)[C@@H]1NC(=O)[C@H](C)NC(=O)[C@H](C)NC(=O)[C@H]([C@@H](C)O)NC(=O)[C@H](Cc2ccccc2)NC(=O)[C@@H]2CSSC[C@@H]3NC(=O)[C@H](C(C)C)NC(=O)[C@H](CCCCN)NC(=O)[C@H](CO)NC(=O)[C@H](CCCCN)NC(=O)[C@@H]4CSSC[C@H](NC(=O)[C@H](CO)NC(=O)[C@H](CCC(=O)O)NC(=O)CNC(=O)[C@H](CSSC[C@H](NC(=O)CNC1=O)C(=O)N[C@@H](CO)C(=O)N4)NC(=O)[C@@H]1CCCN1C(=O)[C@H](Cc1ccccc1)NC(=O)CNC(=O)[C@H](CC(N)=O)NC(=O)[C@H](CCCCN)NC(=O)[C@H](Cc1ccc(O)cc1)NC3=O)C(=O)N[C@@H](C(C)C)C(=O)N[C@@H](C)C(=O)N[C@@H](CC(C)C)C(=O)N1CCC[C@H]1C(=O)N2` has a Kd of 55.7 ± 0.1 µM (POPC/POPE lipid membrane; membrane binding, surface plasmon resonance; POPC/POPE 80:20 vesicles; pH 7.4).
`CC(=O)N[C@@H]1[C@@H](O[C@@H]2O[C@H](C(=O)O)[C@@H](O[C@@H]3O[C@H](COS(=O)(=O)O)[C@@H](O)[C@H](O[C@@H]4O[C@H](C(=O)O)[C@@H](O)[C@H](O)[C@H]4O)[C@H]3NC(C)=O)[C@H](O)[C@H]2O)[C@H](O)[C@@H](COS(=O)(=O)O)O[C@H]1N=[N+]=[N-]` has a Kd of 1330 µM (Interleukin-8 (CXCL8, Homo sapiens, UniProt P10145); ligand displacement, FP).
For `COc1ccc2c(c1)C1CC(C)(N2)c2c(C)nc3ccc(OC)cc3c21` (stereo not drawn), the Kd was < 75 µM (Glideosome-associated protein 50 (GAP50, Plasmodium falciparum, UniProt Q8I2X3); surface plasmon resonance).
`Cc1cn(C2CC(O)C(COP(=O)(O)OP(=O)(O)C(F)P(=O)(O)O)O2)c(=O)[nH]c1=O` (mixture of isomers) has a Kd of 83.6 ± 9.2 µM (POLB; dNTP binding, substrate, single-turnover kinetics; single-nucleotide gapped DNA; 37 °C, wild type, correct incorporation, together with: dTTP opposite template A).
The Kd of `CC[C@H](C)[C@H](NC(=O)[C@H](CC(=O)O)NC(=O)[C@H](CO)NC(C)=O)C(=O)N[C@@H](CSCc1ccccc1)C(=O)N[C@@H](CC(=O)O)C(=O)N[C@@H](Cc1ccccc1C)C(=O)N[C@H](C(=O)N[C@@H](CC(C)C)C(=O)N[C@@H](CCCCN)C(=O)N[C@@H](CC(N)=O)C(=O)N[C@@H](Cc1ccc(O)cc1)C(=O)N1CCC[C@H]1C(=O)O)[C@@H](C)CC` is reported as 3.3 ± 0.5 µM (CREB-binding protein, KIX domain (CREBBP, Homo sapiens, UniProt Q92793); binding, fluorescence polarisation).
`Cc1n[nH]c(C)c1CCCOc1cc(OCCCCCCNCCOCCN=[N+]=[N-])cc(C(=O)O)c1` gave a Kd of 0.107 µM (Transthyretin (TTR, Homo sapiens, UniProt P02766); cell-free assay, FP; pH 7.4).
With `Cc1cc(NCC(=O)C(C)C)c2nc(N3CCOC[C@H]3C)cc(=O)n2c1` the Kd was 0.736 µM (Phosphatidylinositol 3-kinase catalytic subunit type 3 (PIK3C3, Homo sapiens, UniProt Q8NEB9); binding, SPR).
With `C[n+]1cc(NC(=O)c2ccc3ccc4ccc(C(=O)Nc5cc6ccccc6[n+](C)c5)nc4c3n2)cc2ccccc21` the Kd was 0.57 µM (MYC snap-back G4 DNA; binding, native ESI-MS; 100 mM trimethylammonium acetate; 1 mM KCl).
The Kd of `CC1=C([C@H](C)N[C@H](C)[C@@H]2COC(=O)[C@H]2C)COC1=O` is reported as 118 µM (Alpha-glucosidase MAL12 (MAL12, Saccharomyces cerevisiae S288c, UniProt P53341); binding, surface plasmon resonance).
With `Nc1nc2c(ncn2[C@H]2C[C@H](O)[C@@H](COP(=O)(O)OP(=O)(O)[C@@H](F)P(=O)(O)O)O2)c(=O)[nH]1` the Kd was 39 ± 8 µM (DNA polymerase beta (POLB, Homo sapiens, UniProt P06746, R183A); substrate, pre-steady-state kinetics; incorporation opposite dC in gapped DNA).
`CC(P(=O)(O)O)P(=O)(O)OP(=O)(O)OCC1OC(n2cnc3c(=O)[nH]c(N)nc32)CC1O` (mixture of isomers) has a Kd of 57 ± 47 µM (POLB; nucleotide binding, substrate, single turnover kinetics; 37 °C, dG misincorporation opposite A).
With `COc1ccc(Cc2cc3c4c(c2)O[C@H](CO)[C@H](O)[C@@H]4OC3)cc1` the Kd was 640 µM (Galectin-8 (LGALS8, Homo sapiens, UniProt O00214); cell-free assay, FP).
`CC[C@H](C)[C@@H]1NC(=O)[C@H](Cc2ccc(O)cc2)NC(=O)[C@@H]2CCCN2C(=O)[C@H](CCCNC(=N)N)NC(=O)[C@@H](Cc2c[nH]c3ccccc23)NC(=O)CSC[C@@H](C(=O)NCC(N)=O)NC(=O)[C@H](C(C)C)NC(=O)[C@H]([C@@H](C)CC)NC(=O)[C@H](CC(C)C)NC(=O)[C@H](CCCNC(=N)N)NC(=O)CNC(=O)[C@H]([C@@H](C)O)NC(=O)[C@H](Cc2c[nH]c3ccccc23)NC(=O)[C@H](CCCNC(=N)N)NC(=O)[C@H](CCC(=O)O)NC1=O` gave a Kd of 0.00028 µM (Plexin-B1 (PLXNB1, Homo sapiens, UniProt O43157); SPR).
`CC(C)CCCC(C)C1CCC2C3CC=C4CC(OC(=O)CCC(=O)NCCCCCCNC(=O)O[C@H]5[C@@H](O)[C@H](n6cnc7c(=O)[nH]c(N)nc76)O[C@@H]5COP(=O)(O)OP(=O)([O-])OP(=O)(O)OC[C@H]5O[C@@H](n6c[n+](C)c7c(O)nc(N)nc76)[C@H](O)[C@@H]5O)CCC4(C)C3CCC12C` (stereo partly drawn) gave a Kd of 0.043 µM (Eukaryotic translation initiation factor 4E (Eif4e, Mus musculus, UniProt P63073); cap analogue binding, pyrene fluorescence competition; 20 °C).
For `Cc1cn([C@H]2C[C@H](O)[C@@H](COP(=O)(O)OP(=O)(O)C(Br)(Br)P(=O)(O)O)O2)c(=O)[nH]c1=O`, the Kd was 71.7 ± 10.8 µM (POLB; dNTP binding, substrate, single-turnover kinetics; single-nucleotide gapped DNA; 37 °C, wild type, correct incorporation, together with: dTTP opposite template A).
The Kd of `CC1(CN)CCN(c2cnc(Sc3cccc(Cl)c3Cl)c(N)n2)CC1` is reported as 0.15 µM (Tyrosine-protein phosphatase non-receptor type 11 (PTPN11, Homo sapiens, UniProt Q06124); binding, ITC).

Excerpt of the above:
With `C[n+]1cc(NC(=O)c2ccc3ccc4ccc(C(=O)Nc5cc6ccccc6[n+](C)c5)nc4c3n2)cc2ccccc21` the Kd was 0.57 µM (MYC snap-back G4 DNA; binding, native ESI-MS; 100 mM trimethylammonium acetate; 1 mM KCl).
The Kd of `CC1=C([C@H](C)N[C@H](C)[C@@H]2COC(=O)[C@H]2C)COC1=O` is reported as 118 µM (Alpha-glucosidase MAL12 (MAL12, Saccharomyces cerevisiae S288c, UniProt P53341); binding, surface plasmon resonance).
